Measurements collected from several papers.
Each numbered part is a random draw from the data of one study; scales do not carry over between parts. Substitutions count along the parent as printed.

Series 1
Target: CCND3, cyclin fold, Cln2 fusion (human)
Method: yeast growth competition, sequencing
Sample: yeast
Setting: weak parent motif
Baseline: not given
Direction: higher = stronger binding
Endpoint: normalised enrichment score
Starting sequence: PKMYT1 docking peptide (human); SFEPRNLLSLFED; partner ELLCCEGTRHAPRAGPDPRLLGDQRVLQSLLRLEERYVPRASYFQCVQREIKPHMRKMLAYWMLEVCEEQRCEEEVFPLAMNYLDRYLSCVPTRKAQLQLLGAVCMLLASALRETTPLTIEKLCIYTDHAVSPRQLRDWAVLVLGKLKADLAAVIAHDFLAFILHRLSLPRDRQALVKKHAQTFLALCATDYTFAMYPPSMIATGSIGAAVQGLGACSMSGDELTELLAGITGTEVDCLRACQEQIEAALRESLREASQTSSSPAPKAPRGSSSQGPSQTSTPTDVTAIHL
S9M: 0.0655
S9R: 0.0586
S9D: 0.0692
N6I: 0.129
E3N: 0.00704
R5W: 0.1
F11E: 0.0375
E3Q: 0.0643
F11S: 0.134
R5H: -0.0206
N6F: 0.214
N6W: 0.157
F11V: 0.115
E12A: 0.0948
P4D: 0.0872
S9Q: 0.0797

Series 2
Target: RNA binding protein fox-1 homolog 2, RRM domain, GST-SBP tag (RBFOX2, Homo sapiens, UniProt O43251-10, residues 100-194)
Method: RNA Bind-n-Seq
Molecule type: RNA
Sample: in vitro
Concentration: 365 nM
Setting: natural RNA segment, single round, ends assumed
Baseline: no-protein control
Direction: higher = stronger binding
Endpoint: RBNS enrichment (R)
Construct (chain): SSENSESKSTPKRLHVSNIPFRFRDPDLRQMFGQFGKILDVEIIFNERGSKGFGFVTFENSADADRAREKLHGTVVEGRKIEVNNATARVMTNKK
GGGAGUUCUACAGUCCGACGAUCCUGGGAGGAGGCUGAGGCCUGUGAAGCCAAACAAUAUGCUCCUGCCUUGCACCUCCAAUAGGUUUUAUUAUUUUUUUUAAAUUAAUGAACAUAUGUAAUAUUAAUAGUUAUGGAAUUCUCGGGUGCCAA: 0.807
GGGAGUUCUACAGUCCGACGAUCGGAAAAGGUUUUAUUUUGUAAUUAUUGUGAUUUCCCGUGGCCCCAGCCUGGCCCAGCUCCCCCGGGAGGGGCCCGCUUGCCUCGGCUCCUGCUGCACCAACCCAGCCGCUUGGAAUUCUCGGGUGCCAA: 0.748
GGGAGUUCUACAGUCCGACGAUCAAGACGUGAGUAGAGCUAGGUUGGGCAGAUGGACAGGUGGCAAUAGUAAGCUUAUCCGAAGCCUACAGUGAGAAACCAUGUAGGCUUCUUGCCCGUUUCUAAUCACCAUUUGGAAUUCUCGGGUGCCAA: 0.474
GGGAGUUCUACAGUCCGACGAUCAGAGCUGUCUUGGCUAAUACUCUGCACCACAAUUGUGAUGUCCUAGUCCUACCACUAGAGGGCAUGGUACAGCCUGGCAAAAGUUAAAAGGGGUGUGGCAGCUCCCAUCAUGGAAUUCUCGGGUGCCAA: 0.336
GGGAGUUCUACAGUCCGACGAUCCCUGGCCCUGGCCUUGCUUGCCCAUGGUGUGUGUGUCCAGAGGUGUGUGUGAGGCUGCCAGAACAAGUGCUGGGUCUGUCACAGAGAAGUUUAAAAAAGAAAACUAAGAUUGGAAUUCUCGGGUGCCAA: 1.46
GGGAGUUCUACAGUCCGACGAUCAGUUGGUAGACUAGCCAAACAUCUGCUUGCUCUCACUUUGUUUUGGAAGAACCAUGGUAGCUUGUCAGCUGGUAGAAAGAUGGUUUGUAAAAACCAGUUUCUCACGGAGGUGGAAUUCUCGGGUGCCAA: 1.46
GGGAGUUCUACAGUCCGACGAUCCGAGCUGUUUACUAGGGAUCCCUCAUCUGUCCCUCCGGGACCUGGUGCUGCCUCUACCUGACACUCCCUUGGGCUCCCUGUAACCUCUUCAGAGGCCCUCGCUGCCAGCUUGGAAUUCUCGGGUGCCAA: 0.192
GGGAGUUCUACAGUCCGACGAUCGCUCUUAGUUGUUCCCUUUCCCUGGGGCUUUUCCAUUUAACACAUGGAGCCCUUCCCCCAGAAGGCUACUUCCUUGUUUUAGAGGAAGGUACUGCCCAUUGGGAGAUGGGUGGAAUUCUCGGGUGCCAA: 0.159
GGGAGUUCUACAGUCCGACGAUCCCCAAAAGGUUACUCUCAUAACAUAAGCUAGCCCCUUCCGGAAGUCAUGGUGGUGGGUUUCUAUCAUCCUGUCUCUGUUUAAAAGGGACUGAAUAGUUGGGUUUUAAAAGUGGAAUUCUCGGGUGCCAA: 0.253
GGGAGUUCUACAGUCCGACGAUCUUAGAGUAGUUGAAAUCUUUAGGAAUGAACUUCUGAGGGCCAAAAAAUGUGACUGACGGGAACAAUUCUUAAACUGAUUAACUAGCUGUAAUAUAGUUUUGUGAAUUUAUUGGAAUUCUCGGGUGCCAA: 0.561
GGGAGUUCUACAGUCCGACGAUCACAUUUAGAGUUAGUAAGGGUUUUAUAUCUCUUCUGUCCAUAUUGUUUUCAAAGGAAUGAGGUGUUUAGGUGGCUGGAAAAGCAUUUGUAGGAAGUUAGAUUUGAAUAUAUGGAAUUCUCGGGUGCCAA: 0.884
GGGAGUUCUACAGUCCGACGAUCCAAGAUUUUCUUACCUCUCAGUUGUUGAAACACUUUGCUUCUUAAAAUUGAUAUGUUGAAACUUUAAUUCUUUUAUCAAUCCCAGCAUUUUGAGAUCAGUCUUUAUUAAUUGGAAUUCUCGGGUGCCAA: 0.483

Series 3
Target: ABI1, truncated, D143A, DHFR fusion (Arabidopsis thaliana)
Method: DHFR PCA, deep sequencing
Sample: yeast
Setting: methotrexate growth selection, single substitutions
Added: (+)-ABA 0.032 µM
Baseline: wild-type fitted maximum
Direction: higher = stronger binding
Endpoint: relative binding score
Starting sequence: PYL1, truncated, DHFR fusion (Arabidopsis thaliana); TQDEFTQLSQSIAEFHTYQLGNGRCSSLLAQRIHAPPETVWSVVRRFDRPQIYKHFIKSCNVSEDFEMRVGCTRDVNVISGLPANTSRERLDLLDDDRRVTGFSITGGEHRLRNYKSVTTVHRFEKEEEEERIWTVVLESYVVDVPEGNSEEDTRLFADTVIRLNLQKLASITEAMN; partner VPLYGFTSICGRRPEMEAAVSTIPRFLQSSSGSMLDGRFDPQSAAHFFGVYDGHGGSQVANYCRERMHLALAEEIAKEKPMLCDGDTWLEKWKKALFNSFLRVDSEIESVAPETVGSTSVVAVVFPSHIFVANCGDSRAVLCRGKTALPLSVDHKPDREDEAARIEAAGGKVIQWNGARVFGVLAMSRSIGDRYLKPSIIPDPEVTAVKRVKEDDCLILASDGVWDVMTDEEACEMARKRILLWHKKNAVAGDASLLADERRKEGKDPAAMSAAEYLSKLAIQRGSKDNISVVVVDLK
N85F: 61.7%
A13S: 21.7%
T17K: 6.69%
I57G: -3.1%
Y18N: -0.623%
I12C: 7.92%
Q31A: 4%
E174C: 0.983%
Q51F: -14.5%
E14W: -0.612%
S80H: 17.7%
D48M: -0.223%
D65G: 19.9%
S59I: 13.4%

Series 4
Target: Protein C-ets-1 (ETS1, Homo sapiens, UniProt P14921, residues 1-441, full length assumed)
Method: protein-binding microarray
Molecule type: double-stranded DNA, one strand shown
Sample: in vitro
Concentration: not given
Setting: k-mer, scored over probes, only values ≥0.25
Direction: higher = stronger binding
Endpoint: E-score
Residues (chain): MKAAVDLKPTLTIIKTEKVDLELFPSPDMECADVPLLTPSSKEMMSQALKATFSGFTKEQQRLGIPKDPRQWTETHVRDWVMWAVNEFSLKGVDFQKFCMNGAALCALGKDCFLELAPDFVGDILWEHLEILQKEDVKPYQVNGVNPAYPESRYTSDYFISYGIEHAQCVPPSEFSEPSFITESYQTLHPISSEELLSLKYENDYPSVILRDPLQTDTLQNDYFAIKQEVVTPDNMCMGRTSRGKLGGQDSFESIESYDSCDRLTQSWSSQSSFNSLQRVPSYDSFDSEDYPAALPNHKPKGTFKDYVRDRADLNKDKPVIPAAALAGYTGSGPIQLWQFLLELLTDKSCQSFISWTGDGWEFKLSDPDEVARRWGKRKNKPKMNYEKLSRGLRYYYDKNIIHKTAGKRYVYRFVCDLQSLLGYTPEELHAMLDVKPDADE
CCACATCC: 0.448
GCAAAGGA: 0.277
CCGGGACC: 0.292
AGGATATG: 0.409
ATGACCGG: 0.266
CACGGGAA: 0.304
GATTTCCC: 0.343
CGGAACCC: 0.347
AGGACGTA: 0.318
CGGCTTCC: 0.433
TATTTCCA: 0.351
CCGGATTC: 0.422
GCAGGGAA: 0.263
CGAACGGA: 0.337
CCGGTCGA: 0.308
AGCGGAAT: 0.323
TCCGGTCA: 0.465

Series 5
Target: Interferon regulatory factor 7, full length, phosphomimetic (IRF7, Homo sapiens, UniProt Q92985, residues 1-503, S471D/S472D/S475D/S476D/S477D/S483D/S484D/S487D)
Method: protein-binding microarray
Molecule type: double-stranded DNA, one strand shown
Sample: in vitro
Concentration: 2200 nM top
Setting: 60-bp whole probe
Added: salmon DNA 0.4 mg/ml
Baseline: random background probes
Direction: higher = stronger binding
Endpoint: fitted relative affinity
All sequences stand within: GCCTAGCAC … GTCTTGATTCGCTTGACGCTGCTG
Target sequence (chain): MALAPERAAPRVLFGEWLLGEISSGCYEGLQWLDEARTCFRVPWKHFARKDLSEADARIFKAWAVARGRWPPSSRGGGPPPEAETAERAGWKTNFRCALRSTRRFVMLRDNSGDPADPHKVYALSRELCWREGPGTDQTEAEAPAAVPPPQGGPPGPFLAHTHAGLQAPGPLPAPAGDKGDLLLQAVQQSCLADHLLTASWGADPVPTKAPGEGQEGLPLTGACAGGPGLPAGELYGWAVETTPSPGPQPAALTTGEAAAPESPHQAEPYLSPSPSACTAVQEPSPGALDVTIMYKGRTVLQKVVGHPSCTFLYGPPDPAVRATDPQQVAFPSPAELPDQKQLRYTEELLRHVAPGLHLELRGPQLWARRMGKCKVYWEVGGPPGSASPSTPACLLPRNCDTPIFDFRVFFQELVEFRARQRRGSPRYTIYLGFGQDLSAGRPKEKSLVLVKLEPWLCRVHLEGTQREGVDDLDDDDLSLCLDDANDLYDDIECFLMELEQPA
GACGGTATCGGTTTCGTGACGTGCTAG: 2.75 z-score
ACACTACCTGACTTCAAACTGTGCTAG: 1.18 z-score
GACGGTCTTCTTCTCCTGACGTGCTAG: 1.14 z-score
TTAGCACTGAGTTTCGATTAGTGCTAG: 3.49 z-score
GACGGTATCGACCATCGGGACGTGCTA: -0.166 z-score
GACGGCCTGCTTTTCCTGACGTGCTAG: 0.477 z-score
TTAGGTTCCCTTTTCCGTTAGTGCTAG: 3.41 z-score
TAGAGGGAGTAAAGGAAAGAGTGCTAG: -1.64 z-score
GACGGACTGGGGTTTCGGAACGTGCTA: 0.831 z-score
TCACTTTTATGCTCTTTCACTGTGCTA: 2.23 z-score
TTAGGTATCGGGGATCGGTTAGTGCTA: -0.000576 z-score
GACGAACTGGGGAGTGGAGACGTGCTA: -0.397 z-score
GACGGTATCGACGATCGGGACGTGCTA: -0.224 z-score
CTTTCTGTCAGTTTTGAGCTGTGCTAG: 1.81 z-score
TTAGGACTGGACTATCGTTTAGTGCTA: -0.157 z-score
TTGTGTCTGGGCATTTTTTTTGTGCTA: -0.732 z-score
TTAGGTTTCGGACTGGGTAAGTGCTAG: 3.45 z-score
TTAGGTTTCCCTCTCCTTTAGTGCTAG: 2.24 z-score
GAATGTCTTCCCCTCTCATTGTGCTAG: 1.41 z-score
TAGAATGTCCTTTCTCCATGGGTGCTA: 0.554 z-score
GACGGTCTCCTTCTCCTGAAGTGCTAG: 0.766 z-score
GACGGACTTGGGTATCGGGACGTGCTA: -0.962 z-score
GACGATCTCAGTCTCGACACGTGCTAG: 0.241 z-score
TTAGGTTTCGGCTTCGGTTAGTGCTAG: 5.73 z-score
GACGATTTCCGGACTGGAGACGTGCTA: 0.952 z-score
